Results gathered from unrelated publications.
Protocols differ between the studies behind these lines. ± marks the error that the study gave.

SMILES	target or system	assay	system	conditions	endpoint	value
CC[C@H](C)[C@H](NC(=O)CNC(=O)CNC(=O)[C@@H](NC(=O)[C@@H](N)CCCNC(=N)N)[C@@H](C)CC)C(=O)N[C@@H](CC(C)C)C(=O)N[C@@H](CCCCN)C(=O)N[C@H](C(=O)N[C@@H](CC(C)C)C(=O)N[C@@H](CCCCN)C(=O)N[C@@H](CCCCN)C(=O)N[C@H](C(=O)N[C@@H](CC(C)C)C(=O)N1CCC[C@H]1C(=O)N[C@@H](CCCCN)C(=O)N[C@@H](C)C(=O)N[C@H](C(=O)N[C@@H](CCCCN)C(=O)N[C@@H](C)C(=O)N[C@@H](C)C(=O)N[C@@H](C)C(=O)N[C@@H](CCC(=O)O)C(=O)N[C@@H](CCSC)C(=O)N[C@@H](C)C(=O)N1CCC[C@H]1C(=O)N1CCC[C@H]1C(=O)N[C@@H](CCC(N)=O)C(=O)N[C@@H](CC(N)=O)C(=O)N[C@@H](CCC(=O)O)C(=O)O)[C@@H](C)CC)C(C)C)[C@@H](C)CC	Drosophila melanogaster	calcium response, calcium imaging	class IV da neurons, ppk1.9-Gal4 UAS-GCaMP6f		EC50	48.7 µM
CCOP(=O)(OCC)Oc1ccc([N+](=O)[O-])cc1	SH-SY5Y	cell viability		24 h, nominal concentration	IC10	766 µM
CC[C@H](C)[C@H](NC(=O)[C@H](CC(C)C)NC(=O)CNC(=O)[C@@H]1CCCN1C(=O)[C@H](CC(C)C)NC(=O)[C@H](C)NC(=O)[C@H](CCCCN)NC(=O)CNC(=O)[C@H](CC(C)C)NC(=O)[C@H](CCSC)NC(=O)[C@H](CCCCN)NC(=O)[C@H](C)NC(=O)[C@H](C)NC(=O)[C@H](C)NC(=O)CNC(=O)[C@H](Cc1c[nH]c2ccccc12)NC(=O)[C@@H](N)Cc1ccccc1)C(=O)N[C@@H](CO)C(=O)N[C@@H](CCSC)C(=O)N[C@@H](Cc1ccccc1)C(=O)N[C@@H](CCC(N)=O)C(=O)N[C@@H](CCCCN)C(=O)N[C@@H](CC(N)=O)C(=O)O	HEK293 cells	resazurin		24 h	CC50	< 6 µM
CC(C)[C@H]1C(=O)O[C@H](C(C)C)C(=O)N(C)[C@@H](C(C)C)C(=O)O[C@H](C(C)C)C(=O)N(C)[C@@H](C(C)C)C(=O)O[C@H](C(C)C)C(=O)N1C		LC-MS/MS	CB-17 scid/scid mice, serum	intraperitoneal, 5 mg/kg, 24 h after last dose, daily dosing	tissue concentration	0.45 ± 0.01 µg/kg
CC[C@H](C)[C@H](NC(=O)[C@H](CCCCN)NC(=O)[C@H](CC(C)C)NC(=O)[C@H](CC(C)C)NC(=O)[C@H](C)NC(=O)CNC(=O)[C@H](CC(C)C)NC(=O)[C@@H](N)Cc1ccccc1)C(=O)NCC(=O)N[C@@H](C)C(=O)N[C@@H](CCCCN)C(=O)N[C@@H](CC(C)C)C(=O)N[C@@H](CC(C)C)C(=O)N1CCC[C@H]1C(=O)N[C@@H](CO)C(=O)N[C@H](C(=O)N[C@H](C(=O)NCC(=O)N[C@@H](CC(C)C)C(=O)N[C@@H](Cc1ccccc1)C(=O)N[C@@H](CCCCN)C(=O)N[C@@H](CCCCN)C(=O)N[C@@H](CCCCN)C(=O)N[C@@H](CCC(N)=O)C(=O)N[C@@H](CCC(N)=O)C(=O)O)C(C)C)C(C)C	HEK293 cells	resazurin		24 h	CC50	< 6 µM
CC[C@H](C)[C@H](NC(=O)[C@H](CCC(N)=O)NC(=O)[C@H](CC(=O)O)NC(=O)[C@@H](NC(=O)[C@H](C)NC(=O)[C@H](C)NC(=O)[C@H](CC(N)=O)NC(=O)[C@@H](NC(=O)[C@@H](NC(=O)[C@H](C)NC(=O)[C@H](CCC(=O)O)NC(=O)CNC(=O)[C@H](C)NC(=O)[C@H](C)NC(=O)[C@H](CCC(=O)O)NC(=O)[C@H](C)NC(=O)[C@H](C)NC(=O)CNC(=O)[C@H](CCCCN)NC(=O)CNC(=O)[C@H](Cc1ccccc1)NC(=O)[C@H](CO)NC(=O)[C@@H](NC(=O)[C@H](CC(C)C)NC(=O)[C@@H](NC(=O)[C@H](CC(N)=O)NC(=O)[C@H](CCCNC(=N)N)NC(=O)CNC(=O)[C@H](Cc1ccccc1)NC(=O)[C@H](CCCCN)NC(=O)[C@H](CO)NC(=O)CNC(=O)[C@H](CCCCN)NC(=O)[C@H](CCCNC(=N)N)NC(=O)[C@H](CCCCN)NC(=O)[C@H](CCCCN)NC(=O)[C@H](CCCNC(=N)N)NC(=O)[C@@H](N)CCCCN)[C@@H](C)CC)[C@@H](C)O)[C@@H](C)O)C(C)C)C(C)C)C(=O)N[C@@H](CC(C)C)C(=O)N[C@@H](CCC(=O)O)C(=O)N[C@@H](C)C(=O)N[C@@H](CCC(N)=O)C(=O)NCC(=O)N[C@@H](CCC(=O)O)C(=O)NCC(=O)N[C@@H](CCC(=O)O)C(=O)N[C@@H](Cc1ccc(O)cc1)C(=O)O	Drosophila melanogaster	calcium response, calcium imaging	class IV da neurons, ppk1.9-Gal4 UAS-GCaMP6f		EC50	2.45 µM
CC[C@H](C)[C@H]1C(=O)N2CCC[C@H]2C(=O)O[C@H](C(C)(C)C)C[C@@H](C)C[C@H](O)[C@H](C)C2=N[C@@H](CCC(=O)N[C@@H](Cc3ccc(OC)cc3)C(=O)N(C)[C@@H](C)C(=O)N1C)CS2	RAW264.7	IL-6 release, inhibitor		LPS-stimulated	IC50	~0.0007 µM
CN(C)c1ccc2nc3ccc(N(C)C)cc3[s+]c2c1	VSVΔG pseudotyped with MERS-CoV S	pseudovirus infection		10 µM	inhibition	75%

Repeated from above:
SMILES	target or system	assay	system	conditions	endpoint	value
CCOP(=O)(OCC)Oc1ccc([N+](=O)[O-])cc1	SH-SY5Y	cell viability		24 h, nominal concentration	IC10	766 µM
